{"data": "Measured values from different studies", "note": "A part holds a random share of what one study measured. Substitutions count along the parent as printed."}
{"data": "Study 1", "target": "CEBPB, bZIP domain (human)", "method": "DHFR protein complementation", "medium": "yeast", "setting": "single substitutions, most at no-binding floor", "baseline": "wild-type JUN-FOS pair", "reading": "higher = stronger binding", "starting sequence": "JUN, bZIP domain (human); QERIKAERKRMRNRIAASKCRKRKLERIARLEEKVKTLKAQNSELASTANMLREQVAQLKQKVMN; partner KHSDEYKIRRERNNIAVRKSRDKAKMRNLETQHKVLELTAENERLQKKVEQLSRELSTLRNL"}
{"Variant": "I28E", "binding fitness": "-1.09 natural log"}
{"Variant": "M51H", "binding fitness": "-1.36 natural log"}
{"Variant": "K34W", "binding fitness": "-1.42 natural log"}
{"Variant": "T48P", "binding fitness": "-1.51 natural log"}
{"data": "Study 2", "target": "TAR DNA-binding protein 43, full length, His tag (TARDBP, Homo sapiens, UniProt Q13148, residues 1-414)", "method": "RNA Bind-n-Seq", "form": "RNA", "medium": "in vitro", "concentration": "20 nM", "setting": "6-mer, flanks averaged, single round", "with": "150 mM KCl", "baseline": "input library", "reading": "higher = stronger binding"}
{"Strand": "AAGAGC", "6-mer enrichment (R)": 0.84}
{"Strand": "CUUUCU", "6-mer enrichment (R)": 0.585}
{"Strand": "GAUAGA", "6-mer enrichment (R)": 0.909}
{"Strand": "UGCUUG", "6-mer enrichment (R)": 0.875}
{"Strand": "UGAGGA", "6-mer enrichment (R)": 1.51}
{"Strand": "AUACAU", "6-mer enrichment (R)": 0.582}
{"Strand": "UGAUGU", "6-mer enrichment (R)": 0.846}
{"Strand": "UCCGGU", "6-mer enrichment (R)": 0.748}
{"Strand": "GCCUCU", "6-mer enrichment (R)": 0.637}
{"Strand": "CACGUU", "6-mer enrichment (R)": 0.608}
{"data": "Study 3", "target": "RNA binding protein fox-1 homolog 2, RRM domain, GST-SBP tag (RBFOX2, Homo sapiens, UniProt O43251-10, residues 100-194)", "method": "RNA Bind-n-Seq", "form": "RNA", "medium": "in vitro", "concentration": "365 nM", "setting": "natural RNA segment, single round, ends assumed", "baseline": "no-protein control", "reading": "higher = stronger binding", "shared flanks, not repeated": "GGGAGUUCUACAGUCCGACGAUC … UGGAAUUCUCGGGUGCCAA"}
{"Strand": "CCAUUUUCACACAACUUCUCUCUGUAUAGGCCUCUGAAAUAUCAAUAAGGCUAAAUAUUACUUUACACAGUAAGAUGUGAAAUUCACAAAAAGUAAACCAAACAAAACGA", "RBNS enrichment (R)": 0.496}
{"Strand": "AAUUCUUAAAGUGGUGGGGUAUUAGUACUAGUAGUUUUAUGUUGUCUAAUUCUAGCCAAGCUUCUGUGUGAAGCUAUAAGGUCUGUGAAUGCCAUACGGCCCUUUAUUGC", "RBNS enrichment (R)": 3.42}
{"Strand": "UCUAGUGUAUUUGAAUAUUUUAGAGAAAGCUUUAUCAUUUUUUAAGAUGCCAAGAUGCUGCCUACGUUUGCAAAAGUUGUCUAAGAAUUCACCAUGAGCUAUAUUUUCUU", "RBNS enrichment (R)": 0.554}
{"Strand": "UUUAAGUAAAAAUAUGCUGUUUUAAUAUUUAAUUUAGUAGAAUUAACAAAAACUUUUUAAUAGUCAAACUGAAUUACCUUGUUUUAUAAAUGUUAAAUUGUUUAUAUUUA", "RBNS enrichment (R)": 1.53}
{"Strand": "GGUGAGAAAGGAUUUGAAACCAUAAAGUGUUUUAAAGAAAUGAACUCUUCAGAAACAGACUUCCUCCUCUUUUCCUUUCUCCUCUGCUCCACAGCCUGUGCUCUGUUCAG", "RBNS enrichment (R)": 0.465}
{"Strand": "UUCCUGGGCGGCCUUUUAUGUCUUGGAGACACCUGAUGUAAAGUUUCUGUAAAUCUAUUUCAUAUCUGACCCACCAAACAGAUUUCUCUUUAAUAAAAAUCCUUUUUGUA", "RBNS enrichment (R)": 0.629}
{"Strand": "ACUUGACAGACUUGUGUUUUCUGGUCUGAGCUGCCUCCACAGGUCCCUCCAGCAAGCCUCACUGCACCUCUCCCCUGCUGUUUGUGUUUGGAAUUUUGUCUUCUUUAGCU", "RBNS enrichment (R)": 3.07}
{"data": "Further values, each from its own experiment"}
{"Molecule": "PhoQ, residues 284 288 289 292 302 303 AGHLVA", "target": "PhoP, residues 12 14 15 18 19 VQGLL (Escherichia coli, UniProt P23836)", "test": "Sort-seq, item: YFP reporter", "system": "E. coli", "conditions": "PhoQ-PhoP variant library, with: 10 µM Mg2+", "scale": "baseline: high Mg2+ state, higher = stronger signaling", "quantity": "fold induction", "result": 18.7}
{"note": "For quick reference, copied from above (study 2):"}
{"Strand": "GAUAGA", "6-mer enrichment (R)": 0.909}
